{"data": "Published values of several laboratories", "note": "Parts stem from different laboratories: compare values within a part only."}
{"data": "Block 1", "target": "Interferon regulatory factor 7, full length, phosphomimetic (IRF7, Homo sapiens, UniProt Q92985, residues 1-503, S101K/S471D/S472D/S475D/S476D/S477D/S483D/S484D/S487D)", "method": "protein-binding microarray", "molecule type": "double-stranded DNA, one strand shown", "sample": "in vitro", "concentration": "250 nM", "notes": "60-bp whole probe", "added": "salmon DNA 0.4 mg/ml", "reference": "random background probes", "direction": "higher = stronger binding", "all sequences stand within": "GCCTAGCAC … GTCTTGATTCGCTTGACGCTGCTG", "Construct (chain)": "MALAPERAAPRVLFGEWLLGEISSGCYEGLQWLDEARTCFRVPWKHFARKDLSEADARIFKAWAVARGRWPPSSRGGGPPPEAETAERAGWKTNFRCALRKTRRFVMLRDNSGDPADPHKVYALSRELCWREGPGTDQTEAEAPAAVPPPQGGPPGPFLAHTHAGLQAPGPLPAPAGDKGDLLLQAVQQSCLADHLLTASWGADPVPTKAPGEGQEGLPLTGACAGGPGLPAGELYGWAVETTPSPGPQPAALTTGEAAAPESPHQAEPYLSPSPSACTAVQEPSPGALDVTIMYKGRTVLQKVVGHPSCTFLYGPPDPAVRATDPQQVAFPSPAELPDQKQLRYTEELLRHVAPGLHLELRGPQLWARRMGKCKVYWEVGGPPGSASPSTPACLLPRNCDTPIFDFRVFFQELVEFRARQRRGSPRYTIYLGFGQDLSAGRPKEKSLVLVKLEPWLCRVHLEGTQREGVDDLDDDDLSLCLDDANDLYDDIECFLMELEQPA"}
{"Strand": "GACGGACTTGGACTGGGGACGTGCTAG", "log fluorescence": "-0.497 z-score"}
{"Strand": "TTCGATTTCAGTATCGATTAGTGCTAG", "log fluorescence": "1.69 z-score"}
{"Strand": "GACGGTATCGACACAGGGGACGTGCTA", "log fluorescence": "-0.0662 z-score"}
{"Strand": "TTAGGACTGCTTAGCCTTTAGTGCTAG", "log fluorescence": "-0.0973 z-score"}
{"Strand": "TTAGATCTCAGTCTCGATTGGTGCTAG", "log fluorescence": "1.87 z-score"}
{"Strand": "TTTCATTTATTTACTCTCTACGTGCTA", "log fluorescence": "1.39 z-score"}
{"Strand": "TTAGATTTCGGGACTGGATTGGTGCTA", "log fluorescence": "0.523 z-score"}
{"data": "Block 2", "target": "Sal-like protein 4, full length isoform A (SALL4, Homo sapiens, UniProt Q9UJQ4, residues 1-1053)", "method": "universal PBM", "molecule type": "double-stranded DNA, one strand shown", "sample": "in vitro", "concentration": "600 nM", "notes": "8-mer, flanks averaged, mean of replicates", "direction": "higher = stronger binding", "sequence of UniProt Q9UJQ4 (whole entry, looked up)": "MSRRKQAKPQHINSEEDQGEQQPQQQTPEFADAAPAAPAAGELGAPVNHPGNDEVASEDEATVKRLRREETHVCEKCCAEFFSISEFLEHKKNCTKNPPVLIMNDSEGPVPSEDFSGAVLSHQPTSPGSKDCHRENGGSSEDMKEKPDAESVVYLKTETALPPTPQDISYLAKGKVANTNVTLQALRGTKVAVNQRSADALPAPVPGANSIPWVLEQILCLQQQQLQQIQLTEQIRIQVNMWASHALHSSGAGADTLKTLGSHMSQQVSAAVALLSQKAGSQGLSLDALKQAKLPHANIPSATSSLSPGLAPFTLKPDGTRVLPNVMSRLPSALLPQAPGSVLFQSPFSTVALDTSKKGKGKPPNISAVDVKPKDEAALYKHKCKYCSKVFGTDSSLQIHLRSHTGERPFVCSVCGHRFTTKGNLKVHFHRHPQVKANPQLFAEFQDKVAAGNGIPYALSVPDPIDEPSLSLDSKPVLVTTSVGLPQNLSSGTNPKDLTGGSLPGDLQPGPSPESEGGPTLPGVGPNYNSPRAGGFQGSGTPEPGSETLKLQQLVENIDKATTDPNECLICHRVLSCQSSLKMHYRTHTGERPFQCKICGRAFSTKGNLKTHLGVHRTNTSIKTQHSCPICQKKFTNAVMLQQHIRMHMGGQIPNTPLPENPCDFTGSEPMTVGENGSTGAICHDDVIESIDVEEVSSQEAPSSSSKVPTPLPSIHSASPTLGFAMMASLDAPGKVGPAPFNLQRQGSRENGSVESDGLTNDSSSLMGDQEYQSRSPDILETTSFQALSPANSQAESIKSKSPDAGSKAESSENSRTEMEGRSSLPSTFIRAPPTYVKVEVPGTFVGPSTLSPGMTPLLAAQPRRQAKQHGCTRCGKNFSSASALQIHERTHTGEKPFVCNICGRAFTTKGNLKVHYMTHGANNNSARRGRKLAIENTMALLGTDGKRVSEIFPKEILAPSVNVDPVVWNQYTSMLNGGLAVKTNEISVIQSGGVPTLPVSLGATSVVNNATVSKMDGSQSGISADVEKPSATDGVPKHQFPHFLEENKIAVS"}
{"Strand": "CGTGAGAC", "E-score": -0.0946}
{"Strand": "GTCTTAAA", "E-score": 0.0684}
{"Strand": "CGTCTTCC", "E-score": -0.155}
{"Strand": "ATGGTGGC", "E-score": -0.121}
{"Strand": "CCAGCAGA", "E-score": -0.07}
{"data": "Block 3", "target": "Hepatocyte nuclear factor 3-beta, forkhead domain (FOXA2, Homo sapiens, UniProt Q9Y261, residues 142-269)", "method": "protein-binding microarray", "molecule type": "double-stranded DNA, one strand shown", "sample": "in vitro", "concentration": "not given", "notes": "k-mer, scored over probes, only values ≥0.25", "direction": "higher = stronger binding", "Residues (chain)": "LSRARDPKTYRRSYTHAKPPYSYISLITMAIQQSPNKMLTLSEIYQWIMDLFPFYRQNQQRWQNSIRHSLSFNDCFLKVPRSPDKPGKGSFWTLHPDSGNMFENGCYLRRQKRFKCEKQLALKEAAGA"}
{"Strand": "AATGGTAA", "E-score": 0.301}
{"Strand": "TATTGTAA", "E-score": 0.304}
{"Strand": "AATAAGTA", "E-score": 0.328}
{"Strand": "ATAGAGAT", "E-score": 0.284}
{"Strand": "ATTAGTTG", "E-score": 0.317}
{"data": "Further values, each from its own experiment"}
{"Substance": "PhoQ, residues 284 288 289 292 302 303 NLMGRA", "target": "PhoP, residues 12 14 15 18 19 TPWLV (Escherichia coli, UniProt P23836)", "assay": "Sort-seq, measured: YFP reporter", "test system": "E. coli", "conditions": "PhoQ-PhoP variant library, added: 10 µM Mg2+", "scale": "reference: high Mg2+ state, higher = stronger signaling", "quantity": "fold induction", "result": 4.93}
{"note": "Some of these lines once more (block 1):"}
{"Strand": "TTCGATTTCAGTATCGATTAGTGCTAG", "log fluorescence": "1.69 z-score"}
{"Strand": "GACGGTATCGACACAGGGGACGTGCTA", "log fluorescence": "-0.0662 z-score"}
